Earlier results as cited in several papers.
Protocols differ between the studies behind these lines. ± gives the spread as reported.

SMILES | method | medium | setting | pKa
O=c1[nH]c2ccccc2n1CCCN1CCC(n2c(=O)[nH]c3cc(Cl)ccc32)CC1 | – | – | ionic strength 10 mM | 8.1
N[C@@H](Cc1ccc(O)c(I)c1)C(=O)O | – | – | – | 7.9
N[C@@H](CS)C(=O)O | – | – | – | 8.25
O=S(=O)(O)CNc1nc(NCS(=O)(=O)O)nc(-c2ccccc2)n1 | – | – | acid side arm | ~-2
COc1cccc(CCc2ccccc2OCC(CN(C)C)OC(=O)CCC(=O)O)c1 (racemic) | – | – | acidic | 3.78
COc1cc2c(cc1C)nc1c(=O)[nH]c(=O)nc-1n2C[C@H](O)[C@H](O)[C@H](O)COP(=O)(O)O | – | – | – | 5.32
O=C1NC(=O)C(c2ccccc2)(c2ccccc2)N1 | – | – | ionic strength 10 mM | 8.36
Cn1ccc(=O)n(C)c1=O | temperature dependence of H/D exchange | acetate buffer | C6-H carbon acid | 34 ± 2
